# Values quoted from earlier work as cited in several papers.
# Each line is one published result; not all experiments were run side by side. ± gives the spread as reported.
Structure (SMILES),organism,effect on,method,cell line,strain,EC50
Cc1cc(O)c(=O)c(O)cc1C(=O)c1ccc2ccc3cccc4ccc1c2c34,herpes simplex virus,viral replication,,,,60 nM
COCCCNC(=O)c1ccc(Cn2c(=O)c3ccccc3n(Cc3ccc(C)cc3)c2=O)cc1,respiratory syncytial virus,cytopathic effect,,,,2140 nM
Cc1cc(C#N)cc(C)c1Oc1nc(NC2CCN(Cc3ccc(S(N)(=O)=O)cc3)CC2)nc2ccsc12,HIV-2,viral replication,MTT,MT-4,ROD,≥ 228000 nM
CNC(=O)C(Cc1ccccc1)NC(=O)C(O)(Cc1ccccc1)CN(Cc1ccc(Br)cc1)NC(=O)C(NC(=O)OC)C(C)(C)C (centres unmarked),HIV-1,viral replication,,MT-4,,> 10000 nM
Cc1nc(N(C)C(=O)Cc2ccc(-c3ccccc3)cc2)sc1S(=O)(=O)NCCN,herpes simplex virus 1,viral replication,,,,100 nM
O=C1Cc2ccccc2C(=O)N1O,hepatitis B virus,viral replication,,HepDES19,genotype D,4200 nM
Cc1cn(C2C=CC(COP(=O)(O)OP(=O)(O)OP(=O)(O)O)O2)c(=O)[nH]c1=O (centres unmarked),HIV-2,viral replication,,CEM/TK− (thymidine kinase-deficient),,> 100000 nM
CNS(=O)(=O)c1sc(N(C)C(=O)Nc2ccc(-c3ccccc3)cc2)nc1C,herpes simplex virus 1,viral replication,,,,1 nM
Oc1ccccc1/C=N/c1sc2c(c1-c1nc3ccccc3s1)CCCC2,human adenovirus 7,antiviral activity,,,,10.8 µg/mL
COC(=O)NC(C(=O)NN(Cc1ccc(-c2ccccc2)cc1)CC(O)(Cc1ccccc1)C(=O)NC1c2ccccc2CC1O)C(C)(C)C (centres unmarked),HIV-1,viral replication,,MT-4,,700 nM
CCOP(=O)(CCCn1cc(Cn2c(=O)n(C(=O)c3ccccc3)c(=O)c3ccccc32)nn1)OCC,human alphaherpesvirus 2,viral replication,,,,17000 nM
Cc1cc(C#N)cc(C)c1Oc1ccnc(Nc2ccc(CN3CCOCC3)cc2)n1,HIV-1,viral replication,,,wild type,11 nM
Cc1nc(N(C)C(=O)Cc2ccc(-n3cccn3)cc2)sc1S(N)(=O)=O,herpes simplex virus 1,viral replication,,,,10 nM
Cc1cc(N2CC[C@@](C#N)(C3(C)CC3)C2=O)cc(C(=O)NCc2cc(F)cc(-c3cnn(C)c3)c2)n1,Toxoplasma gondii,,,,wild type,27 nM
Cc1nc(N(C)C(=O)Cc2ccc(-c3cccnc3)cc2)sc1S(N)(=O)=O,herpes simplex virus 2,viral replication,,,,5 nM
O=C(Nc1ccc2sc(-c3ccc(F)c(F)c3)nc2c1)N1CC[C@H](F)C1,Trypanosoma brucei,,,,,30 nM
CN(C(=O)Nc1ccc(N2CCOCC2)cc1)c1nc(Cl)c(S(=O)(=O)N(C)C)s1,herpes simplex virus 2,viral replication,,,,700 nM
O=c1c(O)ccccc1O,hepatitis B virus,viral replication,,,,1700 nM
Cc1nc(N(C)C(=O)Nc2ccc(-c3ccccc3)cc2)sc1S(=O)(=O)NC1CC1,herpes simplex virus 2,viral replication,,,,100 nM
Cc1cc(/C=C/C#N)cc(C)c1Nc1nc(Nc2ccc(C#N)cc2)ncc1N,HIV-1 wild type,viral replication,single-round infection,,,0.5 ± 0.1 nM
